Measured values collected from several papers.
Lines come from different studies, so protocols differ. ± gives the spread as reported.

The intact tracer of `Cc1nnc(-c2ccc(OCc3cn(CCOCCOCCOCC[18F])nn3)cc2)nn1` is reported as 85% (radio-TLC; mouse, plasma; 30 min).
`Nc1ncnc2c1nc(-n1nnc3c1CCC1C(CO)C1CC3)n2C1OC(CO)C(O)C1O` (mixture of isomers) has an absorption maximum of 270 nm (methanol).
`O=[N+]([O-])c1ccc(/C=N/Nc2nnc(N/N=C/c3ccc([N+](=O)[O-])o3)c3ccccc23)o1` gave a haemolysis of 19 to 35% (haemolysis; human; 100 mM, 45 min).
With `CCCCn1ccn2c(-c3ccc(Oc4ccnc(C)c4)c(F)c3)c(C)nc2c1=O` the brain concentration was 405 ng/g (Sprague Dawley rat male, brain; oral, 10 mg/kg, 1 h).
For `NCCCN1CC(=O)N(Cc2ccccc2)CC(=O)N(CCCN)CC(=O)N(Cc2ccccc2)CC(=O)N(CCCN)CC(=O)N(Cc2ccccc2)CC(=O)N(CCCN)CC(=O)N(Cc2ccccc2)CC(=O)N(CCCN)CC(=O)N(Cc2ccccc2)CC1=O`, the retention time was ~9 min (RP-HPLC C18; acetonitrile gradient).
The intact tracer of `[18F]CCn1cc(COc2ccc(-c3nncnn3)cc2)nn1` is reported as 90% (radio-TLC; mouse, plasma; 30 min).
`COc1ccc(CNc2ccc(-c3ccn4c(CC5CC5)nnc4c3C(F)(F)F)cc2F)cn1` gave a concentration of 478 ng/g (male Sprague-Dawley rat, brain; subcutaneous, 10 mg/kg, 2 h, single dose).
For `O=[N+]([O-])c1cccc(/C=N/Nc2nnc(N/N=C/c3cccc([N+](=O)[O-])c3)c3ccccc23)c1`, the haemolysis was 8.7% (haemolysis; human; 1 mM, 45 min).
With `CCCCCC(=O)OCn1cc(F)c(=O)[nH]c1=O` the half-life was 112 ± 11.9 h (HCl or phosphate buffer; 80 µg/mL, pH 7.4, 37 °C, chemical stability).
For `O=c1[nH]c(=O)n(C2OC(CO)C(O)C2O)cc1-n1nnc2c1CCC1C(CO)C1CC2` (mixture of isomers), the absorption maximum was 270 nm (methanol).
`CC(=O)NC(Cc1c[nH]c2ccccc12)C(=O)NC(CCC(=O)C=[N+]=[N-])C(=O)O` (centres unmarked): stability “stable” (C57BL/6 CES1-/- mouse, intestinal homogenate).
`[18F]CCn1cc(COc2ccc(-c3nnc(-c4ccccn4)nn3)cc2)nn1` gave an intact tracer of 10% (radio-TLC; mouse, plasma; 30 min).
With `NCCCN1CC(=O)N(Cc2cc(C(F)(F)F)cc(C(F)(F)F)c2)CC(=O)N(CCCN)CC(=O)N(Cc2cc(C(F)(F)F)cc(C(F)(F)F)c2)CC(=O)N(CCCN)CC(=O)N(Cc2cc(C(F)(F)F)cc(C(F)(F)F)c2)CC1=O` the retention time was 7.38 min (RP-HPLC C18; acetonitrile gradient).
The haemolysis of `C(=N\Nc1nnc(N/N=C/c2ccco2)c2ccccc12)/c1ccco1` is reported as 9.2% (haemolysis; human; 1 mM, 45 min).
`N#Cc1c(-c2ccc(OCC3CC3)c(Cl)c2)ccn2c(CC(F)(F)F)cnc12` has a compound metabolized of 16% (human liver microsomes; 5 µM, 15 min).
`Oc1ccccc1/C=N/Nc1nnc(N/N=C/c2ccccc2O)c2ccccc12` gave a haemolysis of 19 to 35% (haemolysis; human; 100 mM, 45 min).
With `CCCCn1ccn2c(-c3ccc4[nH]ccc4c3)c(C)nc2c1=O` the brain concentration was 10 ng/g (Sprague Dawley rat male, brain; oral, 10 mg/kg, 2 h).
`O=C(CCc1cn(CCOCCOCCOCC[18F])nn1)Nc1ccc(-c2nnc(-c3ccccn3)nn2)nc1` gave a tissue uptake of 1.5 ± 0.2 %ID/g (PET; BALB/c nude mouse, LS174T xenograft, heart; intravenous, 1 h, with: saline instead of antibody).
`Cc1ccc(Oc2ccc(-c3ccn4c(CC5CC5)nnc4c3C(F)(F)F)cc2F)c(C)n1` has a compound metabolized of 87% (rat liver microsomes; 5 µM, 15 min).
For `NCCC(=O)N1Cc2ccccc2-c2c(nnn2-c2nc3c(N)ncnc3n2C2OC(CO)C(O)C2O)-c2ccccc21` (mixture of isomers), the absorption maximum was 276 nm (methanol).

For quick reference, copied from above:
With `NCCCN1CC(=O)N(Cc2cc(C(F)(F)F)cc(C(F)(F)F)c2)CC(=O)N(CCCN)CC(=O)N(Cc2cc(C(F)(F)F)cc(C(F)(F)F)c2)CC(=O)N(CCCN)CC(=O)N(Cc2cc(C(F)(F)F)cc(C(F)(F)F)c2)CC1=O` the retention time was 7.38 min (RP-HPLC C18; acetonitrile gradient).
The haemolysis of `C(=N\Nc1nnc(N/N=C/c2ccco2)c2ccccc12)/c1ccco1` is reported as 9.2% (haemolysis; human; 1 mM, 45 min).
`N#Cc1c(-c2ccc(OCC3CC3)c(Cl)c2)ccn2c(CC(F)(F)F)cnc12` has a compound metabolized of 16% (human liver microsomes; 5 µM, 15 min).
